{"data": "Literature values as cited in several papers", "Oprm1": "Mu-type opioid receptor (Oprm1, Rattus norvegicus, UniProt P33535)", "note": "Compare with care: the assays were run in different laboratories. ± marks the error that the study gave.", "sequence of UniProt P33535 (whole entry, looked up)": "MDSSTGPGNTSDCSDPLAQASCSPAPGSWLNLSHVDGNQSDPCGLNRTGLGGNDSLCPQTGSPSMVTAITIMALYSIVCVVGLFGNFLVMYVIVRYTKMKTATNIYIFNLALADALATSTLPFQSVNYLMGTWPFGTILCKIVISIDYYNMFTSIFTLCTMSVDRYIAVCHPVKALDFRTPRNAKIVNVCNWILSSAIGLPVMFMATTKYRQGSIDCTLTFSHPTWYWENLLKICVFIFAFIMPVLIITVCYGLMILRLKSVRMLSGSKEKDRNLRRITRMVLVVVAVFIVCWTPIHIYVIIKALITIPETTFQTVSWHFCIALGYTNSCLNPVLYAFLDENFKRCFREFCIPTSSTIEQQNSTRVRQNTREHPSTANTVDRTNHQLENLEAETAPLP", "sequence of UniProt Q2M2I8 (whole entry, looked up)": "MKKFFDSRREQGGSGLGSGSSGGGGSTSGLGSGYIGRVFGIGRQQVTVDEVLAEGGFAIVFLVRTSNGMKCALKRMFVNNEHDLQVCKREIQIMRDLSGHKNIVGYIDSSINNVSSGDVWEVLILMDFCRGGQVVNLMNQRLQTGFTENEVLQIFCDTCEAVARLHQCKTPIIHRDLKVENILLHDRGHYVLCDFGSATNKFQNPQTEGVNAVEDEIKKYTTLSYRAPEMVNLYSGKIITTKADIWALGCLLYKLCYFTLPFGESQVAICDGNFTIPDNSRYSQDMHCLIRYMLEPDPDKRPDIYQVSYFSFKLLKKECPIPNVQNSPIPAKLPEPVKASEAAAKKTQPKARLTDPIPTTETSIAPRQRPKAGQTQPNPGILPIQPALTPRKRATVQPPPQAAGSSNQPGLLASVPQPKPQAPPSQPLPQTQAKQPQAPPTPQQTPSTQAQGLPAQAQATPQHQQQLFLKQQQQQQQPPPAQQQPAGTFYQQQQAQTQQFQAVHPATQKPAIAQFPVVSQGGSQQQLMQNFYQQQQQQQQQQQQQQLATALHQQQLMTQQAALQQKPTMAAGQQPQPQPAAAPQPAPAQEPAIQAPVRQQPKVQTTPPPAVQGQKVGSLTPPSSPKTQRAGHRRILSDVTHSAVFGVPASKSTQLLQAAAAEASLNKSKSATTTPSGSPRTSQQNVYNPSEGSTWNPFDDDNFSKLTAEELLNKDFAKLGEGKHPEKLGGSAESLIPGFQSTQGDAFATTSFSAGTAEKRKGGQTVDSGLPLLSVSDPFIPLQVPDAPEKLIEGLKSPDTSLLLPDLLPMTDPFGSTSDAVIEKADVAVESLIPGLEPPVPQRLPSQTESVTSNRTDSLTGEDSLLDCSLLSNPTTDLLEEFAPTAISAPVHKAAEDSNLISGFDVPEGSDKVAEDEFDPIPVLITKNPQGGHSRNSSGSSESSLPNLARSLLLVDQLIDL", "sequence of UniProt P0DMS8 (whole entry, looked up)": "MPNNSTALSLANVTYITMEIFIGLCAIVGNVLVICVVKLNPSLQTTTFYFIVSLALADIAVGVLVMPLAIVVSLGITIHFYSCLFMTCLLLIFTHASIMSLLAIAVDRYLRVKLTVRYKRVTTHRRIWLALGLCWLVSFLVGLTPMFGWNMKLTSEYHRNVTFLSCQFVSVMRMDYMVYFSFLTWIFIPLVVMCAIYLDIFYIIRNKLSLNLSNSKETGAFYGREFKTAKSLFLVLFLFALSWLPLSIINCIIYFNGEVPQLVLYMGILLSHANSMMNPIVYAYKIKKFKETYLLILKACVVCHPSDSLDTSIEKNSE"}
{"Compound": "OCCN1CCN(CCC=C2c3ccccc3Sc3ccc(C(F)(F)F)cc32)CC1", "tested on": "MCF7", "test": "microarray, item: TRIB1 mRNA", "setting": "concentration not given", "how to read": "reference: DMSO", "quantity": "log2 fold change", "result": 1.29}
{"Compound": "Cc1cc(O)cc(C)c1C[C@H](N)C(=O)N[C@@H]1CCNc2ccc(Cc3ccc4ccccc4c3)cc21", "tested on": "Oprm1", "test": "agonist", "setting": "concentration not given", "quantity": "stimulation", "result": "96 ± 3%"}
{"Compound": "CCCCCC(=O)N[C@H]1[C@H]([C@@H](O)[C@@H](O)CNC(C)=O)OC(C(=O)O)=C[C@@H]1O", "tested on": "Sialidase-1 (NEU1, Homo sapiens, UniProt Q99519)", "test": "inhibitor", "quantity": "Ki", "result": "53 ± 5 nM"}
{"Compound": "CC(=O)N1CC[C@@H](NC(=O)[C@@H](N)Cc2c(C)cc(O)cc2C)c2cc(Cc3ccc4ccccc4c3)ccc21", "tested on": "Oprm1", "test": "agonist", "setting": "concentration not given", "quantity": "stimulation", "result": "87 ± 2.5%"}
{"Compound": "CC[C@H](C)CCCCC(=O)N[C@@H](CCN)C(=O)N[C@H](C(=O)N[C@@H](CCN)C(=O)N[C@H]1CCNC(=O)[C@H]([C@@H](C)O)NC(=O)[C@H](CCN)NC(=O)[C@H](CCN)NC(=O)[C@H](CC(C)C)NC(=O)[C@@H](CC(C)C)NC(=O)[C@H](CCN)NC1=O)[C@@H](C)O", "system": "patients", "setting": "3 to 5 mg/kg/day (ideal body weight)", "quantity": "nephrotoxicity incidence", "result": "63.2%"}
{"Compound": "CN1CC[C@]2(C)c3cc(OC(=O)Nc4ccccc4)ccc3N(C)[C@H]12", "system": "human, plasma", "setting": "oral, dose not given, Posiphen dosed", "quantity": "AUC share", "result": "52.6%"}
{"Compound": "COc1cc(CCNc2nc(C#Cc3ccccc3)nc3c2ncn3[C@H]2[C@H](O)[C@H](O)[C@@H]3C[C@@H]32)ccc1O", "tested on": "ADORA3 (Homo sapiens, UniProt P0DMS8)", "how to read": "reference: unsubstituted N6 analogue", "quantity": "affinity enhancement", "result": "2 fold"}
{"Compound": "COc1ccc(-c2cnc3[nH]cc(C#Cc4cccnc4)c3c2)cc1OC", "tested on": "AAK1 (Homo sapiens, UniProt Q2M2I8)", "quantity": "IC50", "result": "4 nM"}
{"note": "Repeated from above:"}
{"Compound": "CC[C@H](C)CCCCC(=O)N[C@@H](CCN)C(=O)N[C@H](C(=O)N[C@@H](CCN)C(=O)N[C@H]1CCNC(=O)[C@H]([C@@H](C)O)NC(=O)[C@H](CCN)NC(=O)[C@H](CCN)NC(=O)[C@H](CC(C)C)NC(=O)[C@@H](CC(C)C)NC(=O)[C@H](CCN)NC1=O)[C@@H](C)O", "system": "patients", "setting": "3 to 5 mg/kg/day (ideal body weight)", "quantity": "nephrotoxicity incidence", "result": "63.2%"}
